Measurements collected from several papers.
Numbered parts are unrelated; each lists some results of a single study.
Sequence of UniProt O75676 (whole entry, looked up): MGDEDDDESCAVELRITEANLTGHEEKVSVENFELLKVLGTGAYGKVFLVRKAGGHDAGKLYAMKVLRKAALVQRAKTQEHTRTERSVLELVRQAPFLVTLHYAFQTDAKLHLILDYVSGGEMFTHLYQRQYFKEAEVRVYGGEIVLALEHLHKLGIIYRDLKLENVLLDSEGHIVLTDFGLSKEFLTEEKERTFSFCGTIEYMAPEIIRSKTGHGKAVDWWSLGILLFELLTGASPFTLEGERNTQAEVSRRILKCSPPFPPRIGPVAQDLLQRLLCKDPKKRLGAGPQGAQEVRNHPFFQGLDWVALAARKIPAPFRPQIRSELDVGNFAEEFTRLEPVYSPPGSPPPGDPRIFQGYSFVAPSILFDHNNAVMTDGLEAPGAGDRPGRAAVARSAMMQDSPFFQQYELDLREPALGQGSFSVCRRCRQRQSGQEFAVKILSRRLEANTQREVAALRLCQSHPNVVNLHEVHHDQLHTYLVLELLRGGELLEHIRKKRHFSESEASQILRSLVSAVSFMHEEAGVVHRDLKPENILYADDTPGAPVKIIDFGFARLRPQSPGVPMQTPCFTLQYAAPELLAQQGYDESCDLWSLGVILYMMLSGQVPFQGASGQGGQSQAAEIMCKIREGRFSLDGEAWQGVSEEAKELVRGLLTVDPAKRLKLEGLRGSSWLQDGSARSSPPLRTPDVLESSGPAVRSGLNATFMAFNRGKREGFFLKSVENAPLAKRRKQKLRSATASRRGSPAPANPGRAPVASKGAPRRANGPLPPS
Sequence of UniProt P00519 (whole entry, unmodified, looked up): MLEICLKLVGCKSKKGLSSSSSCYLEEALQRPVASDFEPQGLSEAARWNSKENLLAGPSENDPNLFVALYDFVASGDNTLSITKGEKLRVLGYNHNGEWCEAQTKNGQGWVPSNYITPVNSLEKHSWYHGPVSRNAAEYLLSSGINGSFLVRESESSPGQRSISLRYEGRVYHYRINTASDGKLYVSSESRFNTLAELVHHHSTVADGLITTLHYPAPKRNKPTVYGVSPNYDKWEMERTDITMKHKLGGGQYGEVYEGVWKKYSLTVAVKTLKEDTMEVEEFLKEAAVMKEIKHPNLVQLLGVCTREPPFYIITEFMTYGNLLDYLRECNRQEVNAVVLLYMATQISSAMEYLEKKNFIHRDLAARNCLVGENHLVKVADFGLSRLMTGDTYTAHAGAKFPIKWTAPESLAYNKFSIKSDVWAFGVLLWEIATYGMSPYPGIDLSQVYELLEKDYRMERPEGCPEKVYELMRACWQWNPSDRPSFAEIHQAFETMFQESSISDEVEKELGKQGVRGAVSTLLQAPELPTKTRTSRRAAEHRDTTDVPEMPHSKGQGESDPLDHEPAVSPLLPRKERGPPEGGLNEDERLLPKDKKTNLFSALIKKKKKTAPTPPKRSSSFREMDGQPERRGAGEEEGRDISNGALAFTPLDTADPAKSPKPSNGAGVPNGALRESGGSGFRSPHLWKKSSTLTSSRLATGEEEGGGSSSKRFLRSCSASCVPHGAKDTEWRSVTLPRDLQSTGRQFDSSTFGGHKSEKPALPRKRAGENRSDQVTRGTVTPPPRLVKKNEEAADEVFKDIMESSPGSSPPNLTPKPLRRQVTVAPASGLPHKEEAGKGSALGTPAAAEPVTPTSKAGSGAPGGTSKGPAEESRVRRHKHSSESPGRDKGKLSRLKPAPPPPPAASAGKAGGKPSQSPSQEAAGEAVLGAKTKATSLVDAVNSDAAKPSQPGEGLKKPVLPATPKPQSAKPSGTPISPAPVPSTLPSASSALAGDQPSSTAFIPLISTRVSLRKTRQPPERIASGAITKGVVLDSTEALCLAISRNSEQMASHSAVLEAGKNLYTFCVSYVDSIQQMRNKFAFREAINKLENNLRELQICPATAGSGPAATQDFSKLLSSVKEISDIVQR
Sequence of UniProt O75716 (whole entry, looked up): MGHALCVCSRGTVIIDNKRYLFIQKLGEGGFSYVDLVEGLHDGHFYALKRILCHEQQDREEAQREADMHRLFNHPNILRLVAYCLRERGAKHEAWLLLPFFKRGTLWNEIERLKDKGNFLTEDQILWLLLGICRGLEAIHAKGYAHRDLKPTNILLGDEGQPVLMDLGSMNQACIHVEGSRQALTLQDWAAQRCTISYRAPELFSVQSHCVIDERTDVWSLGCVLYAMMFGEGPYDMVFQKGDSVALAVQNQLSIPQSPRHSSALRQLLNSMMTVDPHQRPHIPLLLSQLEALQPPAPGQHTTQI
Sequence of UniProt Q15831 (whole entry, looked up): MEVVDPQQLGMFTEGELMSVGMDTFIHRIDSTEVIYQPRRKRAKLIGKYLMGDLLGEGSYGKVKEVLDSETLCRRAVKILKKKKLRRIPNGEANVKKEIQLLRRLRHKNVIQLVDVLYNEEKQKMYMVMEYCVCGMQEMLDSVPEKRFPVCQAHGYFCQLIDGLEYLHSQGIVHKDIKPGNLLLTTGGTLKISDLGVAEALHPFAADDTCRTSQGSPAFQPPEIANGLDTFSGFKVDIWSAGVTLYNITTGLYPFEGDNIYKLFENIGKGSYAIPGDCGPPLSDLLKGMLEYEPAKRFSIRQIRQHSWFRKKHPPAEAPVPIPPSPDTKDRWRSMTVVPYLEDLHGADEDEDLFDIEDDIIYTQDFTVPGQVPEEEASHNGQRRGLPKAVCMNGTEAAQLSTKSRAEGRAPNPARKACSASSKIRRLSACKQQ
Sequence of UniProt Q15349 (whole entry, looked up): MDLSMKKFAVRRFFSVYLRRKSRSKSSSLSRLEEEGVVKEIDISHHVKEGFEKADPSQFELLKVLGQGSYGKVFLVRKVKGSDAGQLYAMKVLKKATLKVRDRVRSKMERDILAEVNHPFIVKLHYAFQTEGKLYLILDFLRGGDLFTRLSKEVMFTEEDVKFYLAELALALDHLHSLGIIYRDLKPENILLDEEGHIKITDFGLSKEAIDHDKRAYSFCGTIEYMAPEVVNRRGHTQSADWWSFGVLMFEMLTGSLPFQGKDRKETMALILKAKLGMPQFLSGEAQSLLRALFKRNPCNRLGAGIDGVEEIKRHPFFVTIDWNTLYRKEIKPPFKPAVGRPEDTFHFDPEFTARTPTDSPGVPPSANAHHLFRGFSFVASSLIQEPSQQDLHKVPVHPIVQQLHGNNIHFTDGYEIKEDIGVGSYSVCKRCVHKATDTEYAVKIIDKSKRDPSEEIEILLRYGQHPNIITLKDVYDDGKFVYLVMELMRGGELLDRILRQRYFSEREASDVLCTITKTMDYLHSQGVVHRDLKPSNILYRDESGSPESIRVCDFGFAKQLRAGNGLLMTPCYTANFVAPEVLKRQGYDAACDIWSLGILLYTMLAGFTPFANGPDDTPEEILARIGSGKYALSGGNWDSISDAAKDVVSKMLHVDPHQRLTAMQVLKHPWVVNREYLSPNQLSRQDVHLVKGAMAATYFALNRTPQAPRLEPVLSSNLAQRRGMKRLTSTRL
Sequence of UniProt P11362 (whole entry, looked up): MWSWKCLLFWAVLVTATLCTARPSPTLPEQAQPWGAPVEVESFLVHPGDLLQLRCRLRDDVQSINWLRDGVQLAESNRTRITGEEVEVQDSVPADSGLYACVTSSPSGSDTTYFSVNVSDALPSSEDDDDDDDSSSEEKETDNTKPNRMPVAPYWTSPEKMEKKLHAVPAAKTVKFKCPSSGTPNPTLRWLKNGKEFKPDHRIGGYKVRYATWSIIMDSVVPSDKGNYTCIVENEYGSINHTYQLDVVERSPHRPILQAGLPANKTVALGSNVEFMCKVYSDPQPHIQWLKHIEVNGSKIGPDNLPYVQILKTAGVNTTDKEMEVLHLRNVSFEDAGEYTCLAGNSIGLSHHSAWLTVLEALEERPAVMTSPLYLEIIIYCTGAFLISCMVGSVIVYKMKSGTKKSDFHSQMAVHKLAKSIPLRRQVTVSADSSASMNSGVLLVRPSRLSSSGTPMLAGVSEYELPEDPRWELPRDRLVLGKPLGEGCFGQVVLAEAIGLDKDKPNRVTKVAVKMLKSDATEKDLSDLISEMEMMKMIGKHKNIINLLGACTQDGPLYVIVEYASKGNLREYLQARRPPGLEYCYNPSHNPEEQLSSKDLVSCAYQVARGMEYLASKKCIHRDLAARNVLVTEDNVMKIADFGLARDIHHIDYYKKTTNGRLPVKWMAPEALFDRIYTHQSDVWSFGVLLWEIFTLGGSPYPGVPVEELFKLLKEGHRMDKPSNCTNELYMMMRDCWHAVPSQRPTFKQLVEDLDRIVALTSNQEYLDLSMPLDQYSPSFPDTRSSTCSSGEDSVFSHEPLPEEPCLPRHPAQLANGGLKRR

Study 1
Species: human
Sample: microsomes or S9
Tested at: 2 µM
Time: 0.5 h
Compound | remaining compound [%]
CCCS(=O)(=O)N1CCN(S(=O)(=O)c2ccc(NC(C)=O)cc2)CC1 | 22.5
Cc1c(C#N)c(NS(=O)(=O)CCCCF)n2ccccc12 | 12.1
CCC(C)Nc1c(C(C)=O)c(=O)[nH]c2c(C(=O)OC)scc12 (stereo not drawn) | 1.54
CC(=O)c1c(C)cn(CC(O)CN2CCNCC2)c1C (stereo not drawn) | > 99.9
CN(c1cccc(NC(=O)C(C)(C)C)c1)S(C)(=O)=O | 92.3
CC(C)[C@@H](Oc1ccc(NC(=O)C2CC=NN2C(=O)C[C@H](N)Cc2cc(F)c(F)cc2F)cc1)C(=O)O (stereo partly drawn) | 80.6
Cn1c(=O)n(Cc2ccc(-c3ccccc3C#N)cc2)c2ccccc21 | 9.8

Study 2
Organism: Sarcocystis neurona
Observed: parasite growth
Tested at: 10 µM
Time: 96 h
Setting: second screen
Relative to: untreated
Compound | log2 fold change
Cc1ccc(C)c(OCCCC(C)(C)C(=O)O)c1 | 0.21
C[C@H]1C[C@H]2[C@@H]3CCC4=CC(=O)C=C[C@]4(C)[C@@]3(F)[C@@H](O)C[C@]2(C)[C@@]1(O)C(=O)CO | 0.59
COC(=O)C1=C(C)NC(C)=C(C(=O)OCCN(C)Cc2ccccc2)C1c1cccc([N+](=O)[O-])c1 (stereo not drawn) | 0.43
CCC(=O)OCC(=O)[C@@]1(OC(=O)CC)[C@@H](C)C[C@H]2[C@@H]3CCC4=CC(=O)C=C[C@]4(C)[C@@]3(Cl)[C@@H](O)C[C@@]21C | 0.38
S=c1[nH]cnc2nc[nH]c12 | 0.16
Cc1ncc([N+](=O)[O-])n1CC(O)CCl (stereo not drawn) | 0.18

Study 3
SMILES: CC1=C(C#N)C(c2ccc3c(c2)c(NC(=O)c2ccccc2C)nn3C)C(C#N)=C(C)N1
Technique: competition with immobilised ligand
Tested at: 1 µM
target | assay | remaining binding
Tyrosine-protein kinase ABL1, non-phosphorylated (ABL1, Homo sapiens, UniProt P00519, F317L) | cell-free assay | 97%
MAP3K6 (Homo sapiens, UniProt O95382) | cell-free assay | 71%
MET (Homo sapiens, UniProt P08581, Y1235D) | cell-free assay | 74%
Ribosomal protein S6 kinase alpha-4, N-terminal kinase domain (RPS6KA4, Homo sapiens, UniProt O75676) | cell-free assay | 100%
CDKL1 (Homo sapiens, UniProt Q00532) | binding | 72%
HCK (Homo sapiens, UniProt P08631) | cell-free assay | 66%
DYRK1B (Homo sapiens, UniProt Q9Y463) | cell-free assay | 63%
STK16 (Homo sapiens, UniProt O75716) | cell-free assay | 83%
TXK (Homo sapiens, UniProt P42681) | binding | 100%
FGFR1 (Homo sapiens, UniProt P11362) | cell-free assay | 97%
SBK1 (Homo sapiens, UniProt Q52WX2) | cell-free assay | 98%
EGFR (Homo sapiens, UniProt P00533, L858R) | cell-free assay | 80%
Ribosomal protein S6 kinase alpha-2, N-terminal kinase domain (RPS6KA2, Homo sapiens, UniProt Q15349) | cell-free assay | 83%
FLT3 (Homo sapiens, UniProt P36888, D835V/ITD) | cell-free assay | 76%
Receptor-type tyrosine-protein kinase FLT3, autoinhibited (FLT3, Homo sapiens, UniProt P36888) | cell-free assay | 96%
MKNK2 (Homo sapiens, UniProt Q9HBH9) | cell-free assay | 100%
EGFR (Homo sapiens, UniProt P00533, T790M) | cell-free assay | 100%
STK11 (Homo sapiens, UniProt Q15831) | cell-free assay | 89%

Study 4
Technique: logD(dd/w) and ALogP
Setting: MRN method
SMILES | lipophilic permeability efficiency
CC(C)C[C@@H]1NC(=O)[C@H](C)N(C)C(=O)[C@H]2CCCN2C(=O)[C@H](CC(C)C)NC(=O)[C@H](C)N(C)C(=O)[C@@H](CC(C)C)N(C)C1=O | 3.88
CC(C)C[C@@H]1NC(=O)[C@H](C)N(C)C(=O)[C@H]2CCCN2C(=O)[C@H](CC(C)C)NC(=O)[C@H](C)N(C)C(=O)[C@@H](C)N(C)C1=O | 3.83
CC[C@@H]1C(=O)N(C)[C@@H](CC(C)C)C(=O)N[C@@H](CC(C)C)C(=O)N2CCC[C@@H]2C(=O)N(C)[C@@H](Cc2ccc(O)cc2)C(=O)N[C@@H](CC(C)C)C(=O)N1C | 1.68
CC[C@@H]1C(=O)N(C)[C@@H](CC(C)C)C(=O)N[C@@H](CC(C)C)C(=O)N2CCC[C@@H]2C(=O)N(C)[C@@H](Cc2ccccc2)C(=O)N[C@@H](CC(C)C)C(=O)N1C | 3.84
CC(C)C[C@@H]1NC(=O)[C@H](Cc2ccc(O)cc2)NC(=O)[C@H]2CCCN2C(=O)[C@H](CC2CCCCC2)NC(=O)[C@H](CC2CCCCC2)NC(=O)[C@@H](CC(C)C)NC1=O | 0.085
